Measurements from different studies.
Each line is one published result; not all experiments were run side by side. ± gives the spread as reported.

Nc1ncc(-c2cnn(CCO)c2)c2scc(-c3ccc(NC(=O)Nc4cccc(F)c4)cc3)c12
AUC(0-24 h) (patients, plasma; oral, 480 mg twice weekly, day 15): 14700 ± 5220 ng·h/mL

COc1c(C)c2c(c(O)c1C/C=C(\C)CCC(=O)O)C(=O)OC2
unbound fraction (equilibrium dialysis; dogs, albumin H1 allele, plasma; 12.5 µM): 5.17 ± 0.83%

CC(C)NC[C@@H](C(=O)N1CCN(c2ncnc3c2[C@H](C)C[C@H]3O)CC1)c1ccc(Cl)cc1
AUC(0-t) (human, hepatic impairment Severe (Child-Pugh), plasma; oral, 100 mg single, geometric mean): 843 ng·h/mL

C[C@]12CC[C@@H]3c4ccc(O)cc4CC[C@H]3[C@@H]1C[C@@H](O)[C@@H]2O
mean serum concentration (GC-MS; breast cancer women on NSAI, serum; vaginal, 0.03 mg daily, 6 h, day 28): 0.00733 ng/mL

NC(=O)CC[C@@H]1NC(=O)[C@H](Cc2ccccc2)NC(=O)[C@H](Cc2ccc(O)cc2)NC(=O)CCSSC[C@@H](C(=O)N2CCC[C@H]2C(=O)N[C@H](CCCN=C(N)N)C(=O)NCC(N)=O)NC(=O)[C@H](CC(N)=O)NC1=O
freeze-thaw stability (UPLC-MS/MS; human plasma; 3.05 pg/mL, three cycles): 92.7%

CCCOc1ccc([C@H]2CNC(=O)N2c2ccc3[nH]cnc3c2)cc1
AUC(0-12h) (human volunteers fasted, plasma; oral solution, 200 mg single dose, day 1, geometric mean): 1310 ng·h/mL

O=S(=O)(c1ccc(F)cc1)c1cc(F)c(O)c2ncccc12
free concentration (rat Sprague-Dawley male, brain; oral, 10 mg/kg, 4 h): 7.7 nM

S=C(NCCCc1c[nH]cn1)NCCCN(Cc1ccc(Cl)c(Cl)c1)c1ccc(Br)cn1
plasma concentration (male C57BL/6 mice, plasma; intraperitoneal, 30 mg/kg, 2 h): 2870 ng/mL

O=C(/C=C/c1ccc(O)c(O)c1)O[C@H](Cc1ccc(O)c(O)c1)C(=O)O
MRT(0-inf) (UPLC-MS/MS; Wistar rat, microcirculation dysfunction model, plasma; oral, 100 mg/kg Salvia miltiorrhiza stem-leaf extract FT): 22.4 ± 29 h

Cc1cc(Nc2ncc(Cl)c(Nc3ccccc3S(=O)(=O)C(C)C)n2)c(OC(C)C)cc1C1CCNCC1
elimination half-life (measured: total drug; patients, plasma; oral, 750 or 450 mg/day, arithmetic mean): 79.7 h

CC(C)(C)c1cc(NC(=O)Nc2ccc(Oc3ccnc4[nH]c(=O)cnc34)cc2F)n(-c2ccccc2)n1
plasma concentration (female NSG and nude mice, plasma; oral, 20 mg/kg/day, 1 h, end of therapy): ~40000 nM

CCC(CC)COC(=O)[C@H](C)N[P@](=O)(OC[C@H]1O[C@@](C#N)(c2ccc3c(N)ncnn23)[C@H](O)[C@@H]1O)Oc1ccccc1
equilibrium solubility (20% w/w aqueous SBECD; 24 h, pH 1.9, 25 °C, SBECD source 3): 8550 µg/mL

C=CC(=C)CC[C@]1(C)[C@H](C)C[C@H](OC)[C@@]23C(=C[C@H](OC(=O)C(C)C)C[C@@H]12)[C@@H](OC(C)=O)O[C@H]3OC(C)=O
haemolysis (haemolysis; 500 µM): 17.7%

CC(=O)N[C@H](CCCCN)C(=O)N[C@H](CC(C)C)C(=O)N[C@@H](CCN)C(=O)N[C@H](CO)C(=O)N[C@H](CC(C)C)C(=O)N[C@H](CC(C)C)C(=O)N[C@@H](CCN)C(=O)N[C@@H](C(=O)N[C@H](CC(C)C)C(=O)N[C@H](CO)C(=O)N[C@@H](CCN)C(=O)N[C@H](C)C(=O)N[C@H](CCCCN)C(=O)N[C@H](C)C(=O)N[C@H](C)C(=O)N[C@H](CCCCN)C(=O)N[C@H](CC(C)C)C(=O)N[C@@H](CCN)C(=O)N[C@@H](C(=O)N[C@H](CC(C)C)C(=O)N[C@H](CC(C)C)C(=O)N[C@@H](CCN)C(=O)N[C@H](C)C(=O)N[C@H](CC(C)C)C(=O)N[C@H](CO)C(=O)N[C@@H](CCN)C(N)=O)[C@H](C)O)[C@H](C)O
self-association parameter (RP-HPLC temperature profiling; pH 2; relative to: random coil control): 0 min

COc1cc2c(cc1OC)CN(CCc1ccc(NC(=O)c3ccc(C(=O)O[11CH3])c(NC(=O)c4ccc5ccccc5n4)c3)cc1)CC2
unchanged parent in brain (Mdr1a/b(−/−)Bcrp1(−/−) female mouse, brain; intravenous, dose not given, 25 min; relative to: radioactivity): 69%

C[N+]1(CC(=O)OC2CCCCCCCCCCC2)CCC(Cc2ccccc2)CC1.[I-] (stereo not drawn)
aqueous solubility (phosphate buffer with 2% DMSO; 90 min, pH 7.4, theoretical maximum 200 µM): 113 µM

C[C@]1(c2nc3c(C(N)=O)cccc3[nH]2)CCCN1
AUC(0-12h) (human patients, plasma; oral, 10 mg, day -2, cycle 1): 370 ng·h/mL

Cc1nc2cccc(OCC(C)(C)C(=O)NC(C)C)c2c(N)c1C(=O)O
Vd (female Sprague-Dawley rat, plasma; intravenous, 1 mg/kg, single dose): 0.321 L/kg

COc1cccc(CCc2ccccc2OCC(CN(C)C)OC(=O)CCC(=O)O)c1 (racemic)
CLint (human liver microsomes; 400 nM, pH 7.4, with: NADPH): 36.9 ± 5.2 µL/min/mg

Oc1ccc(C(c2ccc(O)cc2)(C(F)(F)F)C(F)(F)F)cc1
elimination (k10) half-life (female Hsd:Sprague Dawley rats, plasma; intravenous, 34 mg/kg, free compound): 0.439 h

CS(=O)(=O)n1cc2c(n1)CN([C@H]1CO[C@H](c3cc(F)ccc3F)[C@@H](N)C1)C2
concentration at 168 h (healthy male human, plasma; oral, 100 mg single, fasted, geometric mean): 54.3 nM

Cn1c(=O)cc(N2CCC[C@@H](N)C2)n(Cc2ccccc2C#N)c1=O
AUC (male ICR mouse, liver; oral, 3 mg/kg, 24 h): 23900 ng·h/mL

COc1cc(Nc2ncc3c(n2)-c2ccc(Cl)cc2C(c2c(F)cccc2OC)=NC3)ccc1C(=O)O
trough concentration (children, UGT1A1 extensive metabolizers, grade ≥2 toxicity, plasma; oral, 80 mg/m2, day 4): 1170 ± 1150 nM

CCCC[C@H](NC(C)=O)C(=O)N[C@H]1CCC(=O)NC[C@@H](C(=O)N[C@@H](Cc2c[nH]c3ccccc23)C(N)=O)NC(=O)[C@H](CCCNC(=N)N)NC(=O)[C@@H](Cc2ccccc2)NC(=O)[C@H](Cc2c[nH]cn2)NC1=O
Tmax (beagle dog, male, plasma; subcutaneous, 40.0 mg/kg daily, day 28): 0.44 h

CC1(C)C2CC[C@@]1(C)C(=O)/C2=C/c1ccoc1
maximum hemolysis (human red blood cells; 10 to 300 µg/mL, 30 min): < 14%

COc1ccc(-n2nc(C(N)=O)c3c2C(=O)N(c2ccc(N4CCCCC4=O)cc2)CC3)cc1
predose plasma concentration (healthy human, plasma; oral, 10 mg, after 3-day washout): ≤ 2.98 ng/mL

CN[C@H](CC(C)C)C(=O)N[C@H]1C(=O)N[C@@H](CC(N)=O)C(=O)N[C@H]2C(=O)N[C@H]3C(=O)N[C@H](C(=O)N[C@H](C(=O)O)c4cc(O)cc(O)c4-c4cc3ccc4O)[C@H](O)c3ccc(c(Cl)c3)Oc3cc2cc(c3O[C@@H]2O[C@H](CO)[C@@H](O)[C@H](O)[C@H]2O[C@H]2C[C@](C)(N)[C@H](O)[C@H](C)O2)Oc2ccc(cc2Cl)[C@H]1O
HC50 (hemolysis; human red blood cells; 60 min, 37 °C, i=1.0,405,50): > 1410 µM

5(6)-carboxytetramethylrhodamine
fluorescence decrease (water; 0.5 µM, with: L-tryptophan 50 mM; relative to: no tryptophan): 4 fold

CCOC(=O)c1ccc2c(c1)C(=O)CCc1ccccc1C(=O)N2
kinetic solubility (nephelometry; aqueous buffer; 30 min, pH 6.5): > 50 µg/mL

CCCCCCCCCCCCCNCC(=O)N(CC(=O)N(CCCCN)CC(=O)N(CCN)CC(=O)N(CC(N)=O)Cc1ccc(F)cc1)Cc1ccc(F)cc1
acetonitrile at elution (preparative RP-HPLC C18; water to acetonitrile gradient; 0.05% TFA in eluent; higher = more hydrophobic): 69.3%

colistin methanesulfonate
rate of conversion to colistin (one-compartment PK model; rat; i.p., 20 mg/kg colistin base activity): 1.21 ± 0.381 mL/min/kg

C[C@@H](c1ncncc1F)[C@](O)(Cn1cncn1)c1ccc(F)cc1F
trough concentration (patients, hematological disorders, CYP2C19 NM with PPI or IM without PPI, plasma; 200 mg, 12 h, steady state, median, combined score 3): 1960 ng/mL

CN[C@@H]1[C@H](O)[C@H](NC)[C@H]2O[C@]3(O)[C@H](O[C@@H]2[C@H]1O)O[C@H](C)C[C@H]3NC(=O)Cc1ccc(Cl)cn1
parent remaining (glutathione conjugation; human liver S9; 100 µM, 2 h, pH 7.4, with: glutathione 0.2 mM): 99.9%

CCN1C(=O)CNc2ncc(-c3ccc(-c4nc[nH]n4)nc3C)nc21
AUC(0-12h) (human, plasma; oral, 10 mg twice daily, first dose): 311 ng·h/mL

CS/C(S)=N/CCCC[S+](C)[O-] (racemic)
mRNA fold change (RT-PCR, measured: Cyp2e1; female Sprague-Dawley rat, colon; oral gavage, 200 mg/kg, dosed for four days; relative to: vehicle): 0.292

CC(C)[C@H](N)C(=O)OCC1(CO)C/C1=C/n1cnc2c(=O)[nH]c(N)nc21.Cl (mixture of isomers)
C0 (measured: prodrug; Swiss-Webster mouse (male), plasma; intravenous, 24.6 mg/kg, one-compartment model): 263 ng/mL
